Assay results collected from several papers.
Every numbered part comes from another study and shows a few of its results, in no order. Several values in a cell are separate wells, animals, samples, runs or records. Substitutions count along the parent as printed.
UniProt P08173, sequence (whole entry, looked up): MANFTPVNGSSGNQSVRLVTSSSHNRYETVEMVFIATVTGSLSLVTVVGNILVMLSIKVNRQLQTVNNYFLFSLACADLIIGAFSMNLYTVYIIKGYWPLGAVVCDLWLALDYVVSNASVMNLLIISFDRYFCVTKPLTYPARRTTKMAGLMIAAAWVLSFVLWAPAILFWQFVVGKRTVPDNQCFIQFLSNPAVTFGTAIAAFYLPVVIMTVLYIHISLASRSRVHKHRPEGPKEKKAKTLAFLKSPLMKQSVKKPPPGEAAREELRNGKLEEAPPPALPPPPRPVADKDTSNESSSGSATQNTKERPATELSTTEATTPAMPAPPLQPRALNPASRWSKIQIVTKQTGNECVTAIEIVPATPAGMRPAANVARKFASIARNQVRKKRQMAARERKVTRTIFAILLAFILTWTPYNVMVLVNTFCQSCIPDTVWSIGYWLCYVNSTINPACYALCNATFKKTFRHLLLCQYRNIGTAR

Set 1
Target: tungstate, free oxyanion
Method: microfluidic competitive inhibition
Matrix: in vitro, cell-free expressed
Tested at: not given
Setting: derived from inhibition constants, unchanged parent 2230 nM
Reading: lower = stronger binding
Parent: PafA, mature enzyme, eGFP fusion (Elizabethkingia meningoseptica, UniProt Q9KJX5); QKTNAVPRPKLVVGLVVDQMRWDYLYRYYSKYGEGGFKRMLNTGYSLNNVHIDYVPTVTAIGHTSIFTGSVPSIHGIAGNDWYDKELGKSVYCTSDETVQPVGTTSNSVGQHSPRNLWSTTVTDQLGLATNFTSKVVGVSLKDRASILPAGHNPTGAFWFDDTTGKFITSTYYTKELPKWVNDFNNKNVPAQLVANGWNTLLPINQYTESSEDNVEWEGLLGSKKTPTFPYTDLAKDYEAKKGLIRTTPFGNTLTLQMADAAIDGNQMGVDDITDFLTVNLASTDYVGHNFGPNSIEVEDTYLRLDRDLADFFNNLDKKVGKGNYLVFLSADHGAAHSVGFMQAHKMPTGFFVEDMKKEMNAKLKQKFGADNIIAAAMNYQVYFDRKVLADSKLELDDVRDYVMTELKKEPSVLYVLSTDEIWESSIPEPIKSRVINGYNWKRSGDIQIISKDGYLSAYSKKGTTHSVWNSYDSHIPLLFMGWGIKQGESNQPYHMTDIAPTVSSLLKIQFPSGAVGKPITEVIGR
Under “oxyanion analog dissociation constant”, `Q100V` is recorded as 2.53 µM.
`N153V` — result for “oxyanion analog dissociation constant”: 2.28 µM.
`K236V` — result for “oxyanion analog dissociation constant”: 2.5 µM.
For `T464G`, “oxyanion analog dissociation constant” read 2.04 µM.
`T232G` — result for “oxyanion analog dissociation constant”: 2.24 µM.
`E216V`: “oxyanion analog dissociation constant” 2.01 µM.
`D397V`: “oxyanion analog dissociation constant” 2.6 µM.
`I66G` — result for “oxyanion analog dissociation constant”: 1.72 µM.

Set 2
Target: CCNE1, cyclin fold, Cln2 fusion (human)
Method: yeast growth competition, sequencing
Matrix: yeast
Setting: strong parent motif
Reference: not given
Reading: higher = stronger binding
Parent: viral docking peptide; YKVKRRLVFGADD
`R5S` — result for “normalised enrichment score”: 0.162.
`R6I` — result for “normalised enrichment score”: 4.65.
`A11M` — result for “normalised enrichment score”: 6.42.
Under “normalised enrichment score”, `D13A` is recorded as 4.67.
Under “normalised enrichment score”, `K2R` is recorded as 5.97.
`K2A` — result for “normalised enrichment score”: 5.77.
`R6C` — result for “normalised enrichment score”: 3.21.
`K4A`: “normalised enrichment score” 3.86.

Other studies, line by line
The luminescence of `CNC(=O)c1ccc(-c2cnn3ccc(C(=O)N(C)c4ccc(Cl)c(C(=O)OC)c4)cc23)cc1` is reported as 32.5% and 39.4% (Cryptosporidium parvum; time-kill; nanoluciferase-expressing; 9 nM, 24 h; reference: DMSO).
`Cc1c(N2CCNCC2)nc2ccc(Br)cc2c1C(=O)NC[C@H](CCC(=O)O)c1ccccc1Cl` gave an inhibition of 16.2% (Muscarinic acetylcholine receptor M4 (CHRM4, Homo sapiens, UniProt P08173); ligand displacement; 10 µM).
